Measurements collected from several papers.
Parts stem from different laboratories: compare values within a part only.

Series 1
Target: Phosphate system positive regulatory protein PHO4, full length, GST-tagged (PHO4, Saccharomyces cerevisiae, UniProt P07270, residues 1-312)
Method: competition protein-binding microarray
Form: double-stranded DNA, one strand shown
Sample: in vitro
Concentration: 2 µM
Notes: whole 60-bp probe, lowest competitor level
With: Cbf1 competitor, 0.05 µM
Direction: higher = stronger binding
Constant ends, left off below: … GTCTTGATTCGCTTGACGCTGCTG
Residues (chain): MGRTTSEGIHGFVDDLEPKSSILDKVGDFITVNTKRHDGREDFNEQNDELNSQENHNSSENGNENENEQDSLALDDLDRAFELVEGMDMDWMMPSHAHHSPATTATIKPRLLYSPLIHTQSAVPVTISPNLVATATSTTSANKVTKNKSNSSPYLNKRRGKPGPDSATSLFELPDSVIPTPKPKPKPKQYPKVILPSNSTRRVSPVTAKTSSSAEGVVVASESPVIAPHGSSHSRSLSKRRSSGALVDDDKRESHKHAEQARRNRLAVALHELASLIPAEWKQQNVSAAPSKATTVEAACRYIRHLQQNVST
Strand	fluorescence intensity [a.u.]
CGTCCTAGTGATTGTCACAACACTTCCATGAGGAAG	5080
CCCCACTCCCGCGAGCACGTGCGCGTCCTCGCTGCT	19100
CCTCCTCCAGTTGAACACATGCAAGGTCGCCCACCA	9560
GTCTTGTCTCATTTTCACGTGAATTTCCCCACTTCA	8620
TTTCATAGAAACAAATCCGTGATGGTTTAATGGTCA	3710
TCAAATATTCCATCGCACGTGTAGTACCCAATGGTT	19000

Series 2
Target: Interferon regulatory factor 5, full length, phosphomimetic (IRF5, Homo sapiens, UniProt Q13568-2, residues 1-514, S451D/S453D/S456D/S462D)
Method: protein-binding microarray
Form: double-stranded DNA, one strand shown
Sample: in vitro
Concentration: 940 nM top
Notes: 60-bp whole probe
With: salmon DNA 0.4 mg/ml
Baseline: random background probes
Direction: higher = stronger binding
Strand	fitted relative affinity [z-score]
GCCTAGCACGACTATCTCAGACTGGAGACGTGCTAGGTCTTGATTCGCTTGACGCTGCTG	-0.262
GCCTAGCACGAGGGTTTCCTTTCCCTGACGTGCTAGGTCTTGATTCGCTTGACGCTGCTG	1.19
GCCTAGCACGACGCTATCAGACTGGAGACGTGCTAGGTCTTGATTCGCTTGACGCTGCTG	-0.109
GCCTAGCACGACGGTATCCTTATCCTGACGTGCTAGGTCTTGATTCGCTTGACGCTGCTG	0.258

Series 3
Target: Protein C-ets-1 (ETS1, Homo sapiens, UniProt P14921, residues 1-441, full length assumed)
Method: protein-binding microarray
Form: double-stranded DNA, one strand shown
Sample: in vitro
Concentration: not given
Notes: k-mer, scored over probes, only values ≥0.25
Direction: higher = stronger binding
Target sequence (chain): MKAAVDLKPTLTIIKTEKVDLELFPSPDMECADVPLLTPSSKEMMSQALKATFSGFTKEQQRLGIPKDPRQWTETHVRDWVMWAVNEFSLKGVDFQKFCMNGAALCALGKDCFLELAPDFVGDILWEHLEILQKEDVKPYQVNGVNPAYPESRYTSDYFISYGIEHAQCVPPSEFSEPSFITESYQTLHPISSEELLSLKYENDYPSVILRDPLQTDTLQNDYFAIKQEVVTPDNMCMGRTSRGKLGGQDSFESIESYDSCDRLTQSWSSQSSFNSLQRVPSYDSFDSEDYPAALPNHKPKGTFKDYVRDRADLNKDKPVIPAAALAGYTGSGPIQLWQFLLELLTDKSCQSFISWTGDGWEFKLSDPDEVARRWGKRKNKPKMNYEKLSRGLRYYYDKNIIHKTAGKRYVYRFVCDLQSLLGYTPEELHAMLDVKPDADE
Strand	E-score
CATTTCCC	0.407
GAACGTCC	0.306
GTAAAGGA	0.252
CCGGTTAC	0.327
GTCAGGAA	0.385
ATCCTGTG	0.396

Further values, each from its own experiment
Substance	target	assay	test system	setting	how to read	measurement	result
PhoQ, residues 284 288 289 292 302 303 SCKMEA	PhoP, residues 12 14 15 18 19 SQCLL (Escherichia coli, UniProt P23836)	Sort-seq, measured: YFP reporter	E. coli	PhoQ-PhoP variant library, with: 10 µM Mg2+	baseline: high Mg2+ state, higher = stronger signaling	fold induction	12.2

Some of these lines once more (series 3):
Strand	E-score
CATTTCCC	0.407
GAACGTCC	0.306
